Measurements pooled from the literature.
A part holds a random share of what one study measured.

Set 1 — method: protein binding microarray; form: double-stranded DNA, one strand shown; sample: in vitro; tested at: not given; relative to: not given; direction: higher = stronger binding; endpoint: E-score
Target: Histone acetyltransferase KAT6A, winged helix 1, GST fusion (KAT6A, Homo sapiens, UniProt Q92794, residues 1-85)
Setting: 8-mer, flanks averaged, mean of 2 arrays, mostly near background
Construct (chain): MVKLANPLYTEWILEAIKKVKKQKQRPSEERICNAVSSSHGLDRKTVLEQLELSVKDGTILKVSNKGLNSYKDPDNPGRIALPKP
GGCGCACC: 0.285
AGCGTCTC: 0.116
AATCTCGG: 0.128
CAACTGCG: 0.235
CCCGAAAC: -0.0201

Set 2 — method: protein-binding microarray; form: double-stranded DNA, one strand shown; sample: in vitro; tested at: 250 nM; setting: 60-bp whole probe; with: salmon DNA 0.4 mg/ml; relative to: random background probes; direction: higher = stronger binding; endpoint: log fluorescence
Target: Interferon regulatory factor 7, full length, phosphomimetic (IRF7, Homo sapiens, UniProt Q92985, residues 1-503, S101K/S471D/S472D/S475D/S476D/S477D/S483D/S484D/S487D)
Residues (chain): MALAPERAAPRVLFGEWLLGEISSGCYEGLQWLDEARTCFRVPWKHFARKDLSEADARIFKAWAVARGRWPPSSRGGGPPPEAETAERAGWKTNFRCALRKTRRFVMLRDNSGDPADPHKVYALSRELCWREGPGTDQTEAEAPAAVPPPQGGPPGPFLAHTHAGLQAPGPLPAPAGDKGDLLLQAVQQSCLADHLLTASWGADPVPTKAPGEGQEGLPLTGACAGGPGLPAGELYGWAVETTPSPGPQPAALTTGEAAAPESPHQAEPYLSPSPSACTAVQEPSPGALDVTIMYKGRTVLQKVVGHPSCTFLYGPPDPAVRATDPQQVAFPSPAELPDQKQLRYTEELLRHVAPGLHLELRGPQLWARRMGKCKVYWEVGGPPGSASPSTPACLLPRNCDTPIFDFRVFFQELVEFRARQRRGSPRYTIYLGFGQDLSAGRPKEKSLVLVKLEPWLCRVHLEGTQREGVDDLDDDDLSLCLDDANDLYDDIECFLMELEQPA
GCCTAGCACTCATTTTTCATTGTTTTACTGTGCTAGGTCTTGATTCGCTTGACGCTGCTG: 1.13 z-score
GCCTAGCACTAAATTTTCACGGTGGGTTCGTGCTAGGTCTTGATTCGCTTGACGCTGCTG: 0.099 z-score
GCCTAGCACTGTTGTCTGTGTTTCCTTGTGTGCTAGGTCTTGATTCGCTTGACGCTGCTG: 0.615 z-score
GCCTAGCACGACGGTATCCTTCTCGTGACGTGCTAGGTCTTGATTCGCTTGACGCTGCTG: 0.309 z-score

Single results of other studies
MAX full length: Protein max, full length (MAX, Homo sapiens, UniProt P61244-2, residues 1-151)
ACACGTGC
E-score (MAX full length; protein-binding microarray; double-stranded DNA, one strand shown, in vitro; not given, k-mer, scored over probes, only values ≥0.25; higher = stronger binding): 0.495

PhoQ, residues 284 288 289 292 302 303 SLANIV
fold induction (PhoP, residues 12 14 15 18 19 SYFRT (Escherichia coli, UniProt P23836); Sort-seq, item: YFP reporter; E. coli; PhoQ-PhoP variant library, with: 10 µM Mg2+; relative to: high Mg2+ state, higher = stronger signaling): 6.32

CGCCACGC
E-score (MAX full length; protein-binding microarray; double-stranded DNA, one strand shown, in vitro; not given, k-mer, scored over probes, only values ≥0.25; higher = stronger binding): 0.427

CATGTACA
E-score (MAX full length; protein-binding microarray; double-stranded DNA, one strand shown, in vitro; not given, k-mer, scored over probes, only values ≥0.25; higher = stronger binding): 0.347

Some of these lines once more (single results of other studies):
CATGTACA
E-score (MAX full length; protein-binding microarray; double-stranded DNA, one strand shown, in vitro; not given, k-mer, scored over probes, only values ≥0.25; higher = stronger binding): 0.347
